# Measured values collected from several papers.
# Parts stem from different laboratories: compare values within a part only.

# Block 1
# Target: Replicase polyprotein 1ab, polymerase (rep, Severe acute respiratory syndrome coronavirus 2, UniProt P0DTD1)
# Effect on: enzyme activity
# Mode: inhibitor
# Tested at: 20 µM
Compound,inhibition [%]
O=C(O)c1ccc(S(=O)(=O)N(Cl)Cl)cc1,27.9
CNC(=C[N+](=O)[O-])NCCSCc1ccc(CN(C)C)o1,44
CC1=C(CCC(=O)O)c2cc3[nH]c(cc4nc(cc5[nH]c(cc1n2)c(C)c5C(C)O)C(C)=C4C(C)O)c(C)c3CCC(=O)O (stereo not shown),99.5
C[N+]1(C)CCc2cc3c(cc2[C@H]1[C@@H]1OC(=O)c2c1ccc1c2OCO1)OCO3,-18.9
Nc1nc(NCCc2ccc(O)cc2)nc2nc(-c3ccco3)nn12,5.07
O=C(Nc1c[nH]nc1-c1nc2ccc(CN3CCOCC3)cc2[nH]1)NC1CC1,-5.35
CCO[C@H]1O[C@@H]2O[C@@]3(C)CC[C@H]4[C@H](C)CC[C@@H]([C@H]1C)[C@@]24OO3,-3.42
Cc1cn(C[C@H](N)C(=O)O)c(=O)n(Cc2ccsc2C(=O)O)c1=O,-0.4
O=c1c(O)c(-c2ccc(O)c(O)c2)oc2cc(O)cc(O)c12,98
O=c1cc(N2CCOCC2)oc2c1ccc1ccccc12,-2.85
CCN1CCCC1=O,-6.08
COc1cc(C(=S)N2CCOCC2)cc(OC)c1OC,6.39
CC(C)CCC[C@@H](C)[C@H]1CC[C@H]2[C@@H]3CCC4=CC(=NO)CC[C@]4(C)[C@H]3CC[C@]12C,1.27
OC(c1ccccc1)(c1ccccc1)C12CC[N+](CCOCc3ccccc3)(CC1)CC2,3.76
O=C(O)c1ccc(N2C(=O)/C(=C\c3ccc(-c4ccc([N+](=O)[O-])cc4)o3)C=C2c2ccccc2)cc1,14
Cn1cc(C(=O)c2cccc3ccccc23)cc1C(=O)O,1.09
CC(C)(C)c1ccc(S(=O)(=O)Nc2ccc(Cl)cc2C(=O)c2cc[n+]([O-])cc2)cc1,5.58
COc1c(O[C@@H]2O[C@H](CO)[C@@H](O)[C@H](O)[C@H]2O)cc2c(c1OC)-c1ccc(SC)c(=O)cc1[C@@H](NC(C)=O)CC2,-0.94
CO/N=C(\C(=O)N[C@@H]1C(=O)N2C(C(=O)O)=C(COC(C)=O)CS[C@H]12)c1csc(N)n1,-1.29
CC[C@@H](Nc1c(Nc2cccc(C(=O)N(C)C)c2O)c(=O)c1=O)c1ccc(C)o1,2.42
CN1CCN(c2ccc3ccccc3n2)CC1,1.41
CNC(C)(C)Cc1ccccc1,-4.94
Nc1nc(=O)c2nc(CNc3ccc(C(=O)N[C@@H](CCC(=O)O)C(=O)O)cc3)cnc2[nH]1,37.3
Cn1cc(-c2cnn3c(N)c(Br)c([C@@H]4CCCNC4)nc23)cn1,-3.05
COc1cc(C(=S)N2CCOCC2)ccc1O,-12

# Block 2
# Target: Interferon regulatory factor 7, full length, phosphomimetic (IRF7, Homo sapiens, UniProt Q92985, residues 1-503, S101K/S471D/S472D/S475D/S476D/S477D/S483D/S484D/S487D)
# Method: protein-binding microarray
# Molecule type: double-stranded DNA, one strand shown
# Matrix: in vitro
# Tested at: 250 nM
# Notes: 60-bp whole probe
# Together with: salmon DNA 0.4 mg/ml
# Reference: random background probes
# Direction: higher = stronger binding
# All sequences stand within: GCCTAGCAC … GTCTTGATTCGCTTGACGCTGCTG
# Target sequence (chain): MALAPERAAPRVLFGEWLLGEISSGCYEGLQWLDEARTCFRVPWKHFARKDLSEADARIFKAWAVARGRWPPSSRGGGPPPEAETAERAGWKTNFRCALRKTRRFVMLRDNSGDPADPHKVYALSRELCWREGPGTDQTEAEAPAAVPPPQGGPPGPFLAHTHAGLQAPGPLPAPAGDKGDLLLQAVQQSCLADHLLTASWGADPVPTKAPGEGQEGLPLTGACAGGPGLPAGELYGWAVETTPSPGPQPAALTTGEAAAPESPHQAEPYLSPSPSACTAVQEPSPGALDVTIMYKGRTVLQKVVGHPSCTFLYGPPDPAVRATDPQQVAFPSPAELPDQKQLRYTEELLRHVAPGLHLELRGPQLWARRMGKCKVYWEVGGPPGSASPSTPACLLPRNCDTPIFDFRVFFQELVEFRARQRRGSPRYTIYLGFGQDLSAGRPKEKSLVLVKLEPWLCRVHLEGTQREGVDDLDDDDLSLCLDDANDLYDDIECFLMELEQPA
Oligonucleotide,log fluorescence
TCTAGCCTCCATTTTTACCCGTGCTAG,-0.4 z-score
GACGGTTTCCTTTTCCTGATGTGCTAG,6.48 z-score
TTAGGTATCGACTTTCGATTAGTGCTA,3.42 z-score
TTAGGTCTCCTTTTCCTTTTGTGCTAG,2.45 z-score
TGAGATCTCAGTCTCGATTAGTGCTAG,1.48 z-score
GTAGGTTTCGGGACTGGGTTAGTGCTA,3.23 z-score
GACGATATCCGACTGGAGACGTGCTAG,-0.0978 z-score
GCTATTTTTAGGATGGGCTAGTGCTAG,0.211 z-score

# Block 3
# Target: RING finger protein unkempt homolog, zinc fingers 1-6, SBP tag (UNK, Homo sapiens, UniProt Q9C0B0, residues 30-357)
# Sequence of UniProt Q9C0B0 (30-357, looked up): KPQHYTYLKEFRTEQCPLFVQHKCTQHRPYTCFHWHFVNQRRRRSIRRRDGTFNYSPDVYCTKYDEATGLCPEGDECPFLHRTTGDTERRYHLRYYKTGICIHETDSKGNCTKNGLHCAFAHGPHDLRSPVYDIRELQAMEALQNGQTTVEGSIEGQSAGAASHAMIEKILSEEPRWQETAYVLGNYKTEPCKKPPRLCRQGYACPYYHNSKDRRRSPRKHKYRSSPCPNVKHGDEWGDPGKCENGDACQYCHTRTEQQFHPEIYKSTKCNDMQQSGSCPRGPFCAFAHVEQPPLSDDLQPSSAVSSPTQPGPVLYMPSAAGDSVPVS
# Method: RNA Bind-n-Seq
# Molecule type: RNA
# Matrix: in vitro
# Tested at: 100 nM
# Notes: RNA with constant flanks, vertebrate orthologous sites, ends assumed
# Reference: input RNA pool
# Direction: higher = stronger binding
# All sequences stand within: GGGAGUUCUACAGUCCGACGAUC … CAACAGAGGAUUGAGCAUCA
Oligonucleotide,bound/input enrichment [ratio]
UAUAUUUAAAAUGUGUUGUUCUAUUUAAAGAUCUCAUUCUGAGUUCCUAUUUCAUUAAAGUAGCUUUCAUUUCUGUUACUGCAGUUAUGAAUAAAUAGAAGGUUUAUGCCAGUAGACACU,0.607
AAAUUUAUUUCAUGCCCUGGACCCCCUACCGUACUGAUACUUUAAUAGAAUAUGCUUCUUUAGAAGAUUUCCAAAAUAGUCGCCAAACAACAACAUACAAACUUCCAAAUCGAGUAGAUG,2.3
UUACAGUCAUUGAUGGACUCUAUUUUUUUAUUAUUACUUGGACCUUGGUCGUUUUUAUACUAGCAAAAUGUCUUGUUUUAAUUUGUGUUUUUUGGCGGGGAGGGAGUGAACUUGCUGAUU,3.35
UCUAGGCUUCCACAUAGGGUCAGCCUCAAGACAUAGGAUUUAUGAUAAAUGUAUCCAGCUAAGUUAAACUUAAUAUUUGUAUUAGCCUAUAAAUAAAAAGGGCAUCUUUUGUAUUAAAAU,0.548
CAAUUCAAUGGUUGAGGGUUCAGAACUCAAAAAGAUUCGGUCCAACUCUAGAAUUUACCACAGAUAUUUUUUACUGGAUGCUGACAUGCAGAGCCUAAGGUGGGAGCCAUCCAAGAAGGA,0.179
GGGGCGGCCGGUGGGGGAAUCCCAUGCCCUGGCCGGCCACCCCUCCCUGCUAACCGCUCCUAGUUUUUUUUUUUUUUUAAACCACCAUGUGAUUAAGGUCGGCGCUGCCUCCCCCGACCC,2.13
UUUAAAGUCAUUUUUUCAUGUUUCCUGUAAAUAAUGGAUAAUCAUUUUUAUUUUAUUUUUAAGUGCUGUUUUAACAAUGUGGAUAGAUCAUAAAUGUACUUGCUGAAUUCAUUCAUUUUU,0.65
GAUUUGGACCUUGGAGCUGAACCAGGGAGCUAGUGAAAGUAAAGCAGACUUGUAAAGUUAUAGCUAUAUGCAGCUGCACAACACAGUUCUACCACUAGCAGCUGUGUUAAAGUAUAUAAA,0.38

# Block 4
# Target: Replicase polyprotein 1ab, main protease (rep, Severe acute respiratory syndrome coronavirus 2, UniProt P0DTD1)
# Effect on: enzyme activity
# Mode: inhibitor
# Tested at: 20 µM
# Notes: hit confirmation
SMILES,inhibition [%]
CC(C)Cc1sc(N)nc1-c1ccc(P(=O)(O)O)o1,17.5
O=C(N/N=C/c1ccc([N+](=O)[O-])o1)c1cc([N+](=O)[O-])cc([N+](=O)[O-])c1O,-5.5
NCc1c[nH]c(=S)n1[C@H]1CCc2c(F)cc(F)cc2C1,57.3

# Block 5
# Cell line: HEK-293T/ACE2
# Tested at: concentration not given
# Time: 16 (unit not given)
# Reference: vehicle
SMILES,viability
CCOC(=O)CCC(=O)O[C@H]1[C@H](O[C@@H]2[C@@H](C)[C@H](O[C@H]3C[C@@](C)(OC)[C@@H](O)[C@H](C)O3)[C@@H](C)C(=O)O[C@H](CC)[C@@](C)(O)[C@H](O)[C@@H](C)C(=O)[C@H](C)C[C@@]2(C)O)O[C@H](C)C[C@@H]1N(C)C,101%
CC1(C)S[C@@H]2[C@H](NC(=O)[C@H](NC(=O)N3CCNC3=O)c3ccccc3)C(=O)N2[C@H]1C(=O)O,98.8%
CNC[C@H](O)c1cccc(O)c1,99%

# Block 6
# Target: PABPC1L2, full length, GST fusion (mouse, UniProt A0ABA7IW68)
# Method: RNAcompete
# Molecule type: RNA
# Matrix: in vitro
# Tested at: 20 nM
# Notes: 7-mer, probes averaged, single round
# Reference: mean of 7-mers
# Direction: higher = stronger binding
# Construct (chain): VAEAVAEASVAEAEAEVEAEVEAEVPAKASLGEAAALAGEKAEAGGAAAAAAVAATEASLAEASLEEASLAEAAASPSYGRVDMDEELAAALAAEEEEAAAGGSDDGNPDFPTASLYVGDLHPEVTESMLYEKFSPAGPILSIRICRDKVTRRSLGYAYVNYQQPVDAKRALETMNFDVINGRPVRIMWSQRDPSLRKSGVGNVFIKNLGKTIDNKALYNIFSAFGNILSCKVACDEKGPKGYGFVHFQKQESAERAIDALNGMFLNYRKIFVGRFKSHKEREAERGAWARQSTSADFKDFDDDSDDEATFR
Oligonucleotide,7-mer Z-score
AACGUCU,-0.253
AUAGGAU,0.0714
CCACAGU,-0.295
ACGGCCC,-0.05
AAUACCG,0.066
CGGACGC,-0.0627
UUUCUAU,-0.273
CAGCCCA,-0.242

# Repeated from above (block 1):
Compound,inhibition [%]
CCN1CCCC1=O,-6.08
COc1cc(C(=S)N2CCOCC2)cc(OC)c1OC,6.39
CC(C)CCC[C@@H](C)[C@H]1CC[C@H]2[C@@H]3CCC4=CC(=NO)CC[C@]4(C)[C@H]3CC[C@]12C,1.27
OC(c1ccccc1)(c1ccccc1)C12CC[N+](CCOCc3ccccc3)(CC1)CC2,3.76
O=C(O)c1ccc(N2C(=O)/C(=C\c3ccc(-c4ccc([N+](=O)[O-])cc4)o3)C=C2c2ccccc2)cc1,14
Cn1cc(C(=O)c2cccc3ccccc23)cc1C(=O)O,1.09
CC(C)(C)c1ccc(S(=O)(=O)Nc2ccc(Cl)cc2C(=O)c2cc[n+]([O-])cc2)cc1,5.58
COc1c(O[C@@H]2O[C@H](CO)[C@@H](O)[C@H](O)[C@H]2O)cc2c(c1OC)-c1ccc(SC)c(=O)cc1[C@@H](NC(C)=O)CC2,-0.94
